Experimental data pooled from the literature.
Lines come from different studies, so protocols differ.
rep main protease: Replicase polyprotein 1ab, main protease (rep, Porcine epidemic diarrhea virus, UniProt P0C6Y4)
PIP4K2C: Phosphatidylinositol 5-phosphate 4-kinase type-2 gamma (PIP4K2C, Homo sapiens, UniProt Q8TBX8)
UniProt Q8TBX8, sequence (whole entry, looked up): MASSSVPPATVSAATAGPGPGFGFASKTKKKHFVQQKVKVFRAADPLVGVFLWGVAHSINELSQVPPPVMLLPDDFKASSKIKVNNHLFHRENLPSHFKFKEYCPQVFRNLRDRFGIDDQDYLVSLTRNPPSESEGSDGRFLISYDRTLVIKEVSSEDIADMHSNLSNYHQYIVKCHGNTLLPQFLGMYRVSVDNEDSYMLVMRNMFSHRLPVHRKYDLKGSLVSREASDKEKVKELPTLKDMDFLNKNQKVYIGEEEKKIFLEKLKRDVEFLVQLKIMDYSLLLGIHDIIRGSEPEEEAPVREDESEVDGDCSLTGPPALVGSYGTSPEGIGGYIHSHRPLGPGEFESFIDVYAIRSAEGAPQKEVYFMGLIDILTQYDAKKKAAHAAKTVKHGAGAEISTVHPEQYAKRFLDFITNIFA
NT5E: 5'-nucleotidase (NT5E, Homo sapiens, UniProt P21589)
UniProt P21589, sequence (whole entry, looked up): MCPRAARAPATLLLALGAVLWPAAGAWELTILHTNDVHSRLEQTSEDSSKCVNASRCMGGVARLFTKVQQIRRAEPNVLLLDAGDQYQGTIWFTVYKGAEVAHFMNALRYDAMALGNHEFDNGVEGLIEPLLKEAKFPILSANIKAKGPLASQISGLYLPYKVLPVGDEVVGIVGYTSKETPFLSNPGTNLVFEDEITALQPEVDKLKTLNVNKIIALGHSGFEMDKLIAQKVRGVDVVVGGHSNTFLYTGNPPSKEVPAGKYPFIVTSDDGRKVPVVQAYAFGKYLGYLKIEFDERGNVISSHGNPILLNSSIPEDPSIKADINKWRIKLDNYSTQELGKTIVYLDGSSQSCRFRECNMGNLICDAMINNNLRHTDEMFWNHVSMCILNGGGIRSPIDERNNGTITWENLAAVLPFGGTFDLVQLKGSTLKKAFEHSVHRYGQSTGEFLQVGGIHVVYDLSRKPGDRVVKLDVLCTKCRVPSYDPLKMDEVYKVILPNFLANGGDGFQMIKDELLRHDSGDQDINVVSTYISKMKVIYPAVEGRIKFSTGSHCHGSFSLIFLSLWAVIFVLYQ
rep papain-like protease: Replicase polyprotein 1ab, papain-like protease (rep, Porcine epidemic diarrhea virus, UniProt P0C6Y4)
AMY2: Pancreatic alpha-amylase (AMY2, Sus scrofa, UniProt P00690)
UniProt P00690, sequence (whole entry, looked up): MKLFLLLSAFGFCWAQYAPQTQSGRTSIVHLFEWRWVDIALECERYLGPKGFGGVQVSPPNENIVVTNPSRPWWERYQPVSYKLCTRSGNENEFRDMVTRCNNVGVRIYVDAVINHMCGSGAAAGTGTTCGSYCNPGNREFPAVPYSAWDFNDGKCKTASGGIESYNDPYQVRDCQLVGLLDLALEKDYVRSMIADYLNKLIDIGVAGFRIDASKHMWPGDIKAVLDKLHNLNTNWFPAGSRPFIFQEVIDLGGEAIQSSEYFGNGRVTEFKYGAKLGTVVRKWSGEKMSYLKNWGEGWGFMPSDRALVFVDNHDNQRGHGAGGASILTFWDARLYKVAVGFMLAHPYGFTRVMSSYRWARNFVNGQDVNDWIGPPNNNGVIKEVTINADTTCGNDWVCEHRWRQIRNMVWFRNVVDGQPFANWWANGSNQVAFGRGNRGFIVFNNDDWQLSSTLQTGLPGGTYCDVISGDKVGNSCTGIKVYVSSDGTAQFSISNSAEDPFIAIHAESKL
CDK7 with cyclin H: Cyclin-dependent kinase 7, with cyclin H (CDK7, Homo sapiens, UniProt P50613)
UniProt P50613, sequence (whole entry, looked up): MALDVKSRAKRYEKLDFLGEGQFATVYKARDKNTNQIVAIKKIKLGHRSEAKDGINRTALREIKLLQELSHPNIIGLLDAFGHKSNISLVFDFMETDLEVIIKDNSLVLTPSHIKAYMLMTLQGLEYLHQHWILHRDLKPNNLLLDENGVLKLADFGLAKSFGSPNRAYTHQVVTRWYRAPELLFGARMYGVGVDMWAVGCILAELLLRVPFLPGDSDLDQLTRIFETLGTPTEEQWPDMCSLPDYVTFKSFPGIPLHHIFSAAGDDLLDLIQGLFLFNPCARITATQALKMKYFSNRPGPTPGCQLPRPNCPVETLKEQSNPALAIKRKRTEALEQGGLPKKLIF
UniProt P05164, sequence (whole entry, looked up): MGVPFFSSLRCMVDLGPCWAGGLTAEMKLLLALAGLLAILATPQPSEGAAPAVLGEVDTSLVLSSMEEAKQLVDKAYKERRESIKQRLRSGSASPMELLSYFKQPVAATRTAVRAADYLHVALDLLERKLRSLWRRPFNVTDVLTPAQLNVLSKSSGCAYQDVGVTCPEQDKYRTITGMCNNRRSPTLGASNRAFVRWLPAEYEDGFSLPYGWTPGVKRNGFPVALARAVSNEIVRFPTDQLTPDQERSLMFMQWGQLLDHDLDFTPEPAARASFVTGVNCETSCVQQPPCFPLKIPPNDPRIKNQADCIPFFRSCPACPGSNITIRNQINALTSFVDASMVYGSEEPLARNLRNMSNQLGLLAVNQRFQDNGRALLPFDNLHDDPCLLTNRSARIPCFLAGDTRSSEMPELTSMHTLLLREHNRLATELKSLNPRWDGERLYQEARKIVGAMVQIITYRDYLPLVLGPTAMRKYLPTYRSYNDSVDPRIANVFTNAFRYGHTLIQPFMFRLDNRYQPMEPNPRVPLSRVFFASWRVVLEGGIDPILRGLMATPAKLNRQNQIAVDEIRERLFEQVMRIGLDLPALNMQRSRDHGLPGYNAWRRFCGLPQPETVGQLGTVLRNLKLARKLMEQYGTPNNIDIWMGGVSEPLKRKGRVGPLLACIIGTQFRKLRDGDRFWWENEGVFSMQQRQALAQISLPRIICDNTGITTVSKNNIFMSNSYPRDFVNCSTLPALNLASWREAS
UniProt Q00536, sequence (whole entry, looked up): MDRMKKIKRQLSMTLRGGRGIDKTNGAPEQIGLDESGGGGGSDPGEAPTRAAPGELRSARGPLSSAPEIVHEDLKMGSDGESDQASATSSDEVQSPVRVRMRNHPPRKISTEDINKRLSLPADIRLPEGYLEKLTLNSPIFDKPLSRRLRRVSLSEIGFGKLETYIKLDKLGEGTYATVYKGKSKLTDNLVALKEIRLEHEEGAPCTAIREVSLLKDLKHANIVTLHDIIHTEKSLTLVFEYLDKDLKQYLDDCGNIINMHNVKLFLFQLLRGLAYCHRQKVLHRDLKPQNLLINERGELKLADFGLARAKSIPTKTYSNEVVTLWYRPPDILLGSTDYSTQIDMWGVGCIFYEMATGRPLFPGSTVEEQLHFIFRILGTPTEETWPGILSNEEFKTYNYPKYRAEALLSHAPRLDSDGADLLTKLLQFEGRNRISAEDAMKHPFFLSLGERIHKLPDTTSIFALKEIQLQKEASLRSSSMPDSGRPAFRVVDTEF
UniProt P07333, sequence (whole entry, looked up): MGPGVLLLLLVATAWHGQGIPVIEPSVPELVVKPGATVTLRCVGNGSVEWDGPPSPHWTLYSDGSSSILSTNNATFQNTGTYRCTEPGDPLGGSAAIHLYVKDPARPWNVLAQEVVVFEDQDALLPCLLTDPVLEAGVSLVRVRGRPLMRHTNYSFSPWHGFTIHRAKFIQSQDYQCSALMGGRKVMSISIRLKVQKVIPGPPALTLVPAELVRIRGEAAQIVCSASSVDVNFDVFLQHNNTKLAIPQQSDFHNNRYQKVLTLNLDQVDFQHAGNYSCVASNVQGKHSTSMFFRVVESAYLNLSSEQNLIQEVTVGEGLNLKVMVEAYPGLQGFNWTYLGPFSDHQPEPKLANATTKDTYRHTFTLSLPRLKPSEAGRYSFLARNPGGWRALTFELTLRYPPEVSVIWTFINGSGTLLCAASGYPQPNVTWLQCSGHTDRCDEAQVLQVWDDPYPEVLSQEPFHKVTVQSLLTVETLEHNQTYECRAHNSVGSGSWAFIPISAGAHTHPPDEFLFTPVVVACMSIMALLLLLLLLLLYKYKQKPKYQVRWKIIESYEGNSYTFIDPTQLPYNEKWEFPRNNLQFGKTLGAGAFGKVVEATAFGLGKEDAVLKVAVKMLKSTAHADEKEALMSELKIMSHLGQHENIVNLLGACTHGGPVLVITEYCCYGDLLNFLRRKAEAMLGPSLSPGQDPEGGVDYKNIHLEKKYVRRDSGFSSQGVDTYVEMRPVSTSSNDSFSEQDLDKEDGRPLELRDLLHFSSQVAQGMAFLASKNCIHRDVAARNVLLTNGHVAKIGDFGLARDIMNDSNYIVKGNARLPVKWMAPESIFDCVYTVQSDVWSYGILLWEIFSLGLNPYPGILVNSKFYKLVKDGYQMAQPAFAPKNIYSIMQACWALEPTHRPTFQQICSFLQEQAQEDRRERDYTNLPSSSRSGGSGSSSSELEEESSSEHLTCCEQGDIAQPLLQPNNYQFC
UniProt P27361, sequence (whole entry, looked up): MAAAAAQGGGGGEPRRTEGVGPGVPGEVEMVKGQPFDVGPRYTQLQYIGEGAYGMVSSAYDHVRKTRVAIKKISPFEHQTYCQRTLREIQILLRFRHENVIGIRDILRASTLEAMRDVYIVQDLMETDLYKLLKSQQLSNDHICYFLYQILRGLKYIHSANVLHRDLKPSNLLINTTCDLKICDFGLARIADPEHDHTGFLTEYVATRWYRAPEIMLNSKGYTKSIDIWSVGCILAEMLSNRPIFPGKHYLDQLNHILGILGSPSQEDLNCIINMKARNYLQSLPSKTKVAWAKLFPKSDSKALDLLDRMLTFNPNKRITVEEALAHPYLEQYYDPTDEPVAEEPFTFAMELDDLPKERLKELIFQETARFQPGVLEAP
UniProt O14757, sequence (whole entry, looked up): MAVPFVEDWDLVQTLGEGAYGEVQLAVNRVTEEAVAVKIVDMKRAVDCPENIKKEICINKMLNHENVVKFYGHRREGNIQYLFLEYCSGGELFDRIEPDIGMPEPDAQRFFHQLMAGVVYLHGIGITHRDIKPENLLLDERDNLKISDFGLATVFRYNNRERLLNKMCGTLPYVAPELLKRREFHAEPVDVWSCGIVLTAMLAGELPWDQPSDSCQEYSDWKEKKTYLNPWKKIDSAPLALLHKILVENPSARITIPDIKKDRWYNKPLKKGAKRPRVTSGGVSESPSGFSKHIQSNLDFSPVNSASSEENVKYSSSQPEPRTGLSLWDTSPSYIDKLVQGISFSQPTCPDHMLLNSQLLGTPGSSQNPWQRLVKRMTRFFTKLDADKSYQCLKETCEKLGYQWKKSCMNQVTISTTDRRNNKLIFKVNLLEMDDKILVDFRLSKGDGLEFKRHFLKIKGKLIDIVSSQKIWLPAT

COc1ccc(C(=O)NCc2cc(O)c(O)c(Br)c2)cc1 — inhibition (rep main protease; enzyme activity, inhibitor, FRET; 10 µM): 105%
C=CC(=O)N1CCC(COCC(=O)N2CCN(c3nc(-c4cnc(N)nc4C(F)F)nc(N4CCOC[C@@H]4C)n3)CC2)CC1 — remaining binding (PRKCQ (Homo sapiens, UniProt Q04759); binding, competition with immobilised ligand; 1 µM): 99%
CCCn1cnc2ccc(-c3ccc(NC(=O)c4ccccc4)nc3)cc2c1=O — inhibition (PIP4K2C; binding, competition with immobilised ligand; 0.5 µM): 99.5%
COC(=O)c1ccc(NC(=O)CSc2nc(C)cc(-c3ccccc3)c2C#N)cc1 — inhibition (NT5E; enzyme activity, inhibitor; 10 µM): 17%
COc1cc(CNC(=O)CC(c2ccc(Cl)cc2)C(C)C)cc(Br)c1OC (centres unmarked) — inhibition (rep papain-like protease; enzyme activity, inhibitor, FRET; 10 µM): 10.7%
Cc1noc(NS(=O)(=O)c2ccc(N=NN(O)c3ccccc3)cc2)c1C — inhibition (AMY2; enzyme activity, inhibitor; 60 µg/mL): 26.3%
COc1cccc(-c2n[nH]c(SCc3ccccn3)n2)c1OC — concentration (female Sprague-Dawley rat, plasma; intravenous, 1 mg/kg, 2 h, single dose): 63.6 ng/mL
COC(=O)CNC(=O)CCSc1nc(C)cc(C)c1C#N — inhibition (NT5E; enzyme activity, inhibitor; 10 µM): -22%
CNc1ncc2c(/C=C/C(=O)N3CCC(OC)CC3)nn(Cc3cccc(C(F)(F)F)c3)c2n1 — remaining activity (CAMK2G (Homo sapiens, UniProt Q13555); enzyme activity, inhibitor, radiometric; 1 µM): 97%
COc1cc(CNC(=O)c2ccno2)cc(Br)c1OC — inhibition (rep papain-like protease; enzyme activity, inhibitor, FRET; 10 µM): 3.83%
O=S(=O)(Nc1nccs1)c1ccc(N=NN(O)c2ccccc2)cc1 — inhibition (AMY2; enzyme activity, inhibitor; 300 µg/mL): 68.4%
CN1CC(Oc2cnc(C#N)cc2-c2ccn3nc(NC(=O)C4CC4)cc3c2)C1 — inhibition (CHEK1 (Homo sapiens, UniProt O14757); enzyme activity, inhibitor; 1 µM): -4%
COc1ccc(NC(=O)CSc2nc(-c3ccccc3)cc(C)c2C#N)cc1 — inhibition (NT5E; enzyme activity, inhibitor, HPLC; 10 µM): 79%
Cc1noc(C)c1Cn1cc(N2C(=O)CN(Cc3cccc(O)c3)C2=O)cn1 — concentration (male Sprague-Dawley rat, plasma; oral, 100 mg/kg, 30 min): 68.1 ng/mL
CN(O)N=Nc1ccc(S(=O)(=O)Nc2nccs2)cc1 — inhibition (AMY2; enzyme activity, inhibitor; 20 µg/mL): 15.8%
CCOC(=O)[C@@]12C[C@@H]1[C@@H](n1cnc3c(Nc4ccccc4)nc(I)nc31)[C@H](O)[C@@H]2O — inhibition (SLC6A2 (Homo sapiens, UniProt P23975); ligand displacement, radioligand; 10 µM): 23%
CCCCn1cnc2ccc(-c3ccc(NC(C)=O)nc3)cc2c1=O — inhibition (PIP4K2C; binding; 0.5 µM): 85.8%
O=C(Nc1ccc(F)c(Cl)c1)c1ccc2c(c1)C(=O)NC2=O — inhibition (MAOB (Homo sapiens, UniProt P27338); enzyme activity, inhibitor; 1 µM): 96.2%
CC(=NNC(=O)c1ccccc1Cl)c1ccc(Nc2nnc(-c3ccc(Cl)cc3)c3ccccc23)cc1 — viability (HepG2; cell growth or viability, MTT; 1.25 µM, 24 h): 5.45%
C1=C/COCc2cc(ccc2OCCN2CCCC2)Nc2nccc(n2)-c2cccc(c2)COC/1 — remaining binding (CSF1R (Homo sapiens, UniProt P07333); binding; 0.1 µM): 70%
CC[C@H](C)[C@H](NC(=O)[C@H](CCC(N)=O)NC(=O)[C@H](CC(C)C)NC(=O)[C@H](CCSC)NC(=O)[C@H](CCCCN)NC(=O)[C@H](CO)NC(=O)[C@H](CO)NC(=O)[C@H](CCSC)NC(=O)[C@H](CC(C)C)NC(=O)[C@H](CC(N)=O)NC(=O)[C@@H](NC(=O)[C@@H](NC(=O)[C@H](CO)NC(=O)[C@H](CC(C)C)NC(=O)[C@H](CS)NC(=O)[C@H](CCCNC(=N)N)NC(=O)[C@H](CC(=O)O)NC(=O)[C@H](Cc1c[nH]c2ccccc12)NC(=O)[C@H](Cc1ccccc1)NC(=O)[C@H](C)NC(=O)[C@H](CCC(=O)O)NC(=O)[C@@H](N)CCCCN)C(C)C)[C@@H](C)CC)C(=O)N[C@@H](CC(N)=O)C(=O)N[C@@H](C)C(=O)O — inhibition (MAPK3 (Homo sapiens, UniProt P27361); enzyme activity, inhibitor, radiometric; 1 µM): 0%
COc1cc(CNC(=O)c2ccc3ccccc3n2)cc(Br)c1OC — inhibition (rep papain-like protease; enzyme activity, inhibitor, FRET; 10 µM): 10.1%
CCCN(O)N=Nc1ccc(S(=O)(=O)Nc2onc(C)c2C)cc1 — inhibition (AMY2; enzyme activity, inhibitor; 240 µg/mL): 63.2%
CC[C@H](C)[C@H](NC(=O)[C@H](CCC(N)=O)NC(=O)[C@@H](NC(=O)[C@H](CCSC)NC(=O)[C@H](CCCCN)NC(=O)[C@H](CO)NC(=O)[C@@H](NC(=O)[C@H](CCSC)NC(=O)[C@H](CC(C)C)NC(=O)[C@H](CC(N)=O)NC(=O)[C@@H](NC(=O)[C@@H](NC(=O)[C@H](CO)NC(=O)[C@H](CC(C)C)NC(=O)[C@H](C)NC(=O)[C@H](CCCNC(=N)N)NC(=O)[C@H](CCC(=O)O)NC(=O)[C@H](Cc1ccc(O)cc1)NC(=O)[C@H](Cc1ccccc1)NC(=O)[C@H](C)NC(=O)[C@H](CC(N)=O)NC(=O)[C@@H](N)CCCCN)[C@@H](C)CC)[C@@H](C)CC)[C@@H](C)O)C(C)C)C(=O)N[C@@H](CC(N)=O)C(=O)N[C@H](C(=O)O)C(C)C — inhibition (Cyclin-dependent kinase 5, with p25 (CDK5, Homo sapiens, UniProt Q00535); enzyme activity, inhibitor, radiometric; 250 µM): 73%
COc1cc(-c2cncc3c2CN(C)Cc2cc(N4CCNCC4)ccc2-3)cc(OC)c1OC — remaining activity (Cyclin-dependent kinase 16, with cyclin Y (CDK16, Homo sapiens, UniProt Q00536); enzyme activity, inhibitor; 1 µM): 110%
O=C(NCc1cc(O)c(O)c(Br)c1)N1CCCC1 — inhibition (rep main protease; enzyme activity, inhibitor, FRET; 10 µM): 103%
CCCOCCN(C(=O)CCl)c1c(CC)cccc1CC — inhibition (SLC22A11 (Homo sapiens, UniProt Q9NSA0); transporter uptake, inhibitor; 25 µM): 76.5%
COc1cc(CNC(=O)c2cccc(Br)c2)cc(Br)c1OC — inhibition (rep papain-like protease; enzyme activity, inhibitor, FRET; 10 µM): 21.4%
CN1[C@@H](CC(=O)c2ccccc2)CCC[C@H]1C[C@H](O)c1ccccc1 — inhibition (CDK7 with cyclin H; enzyme activity, inhibitor, ADP detection; 10 µM): 3.62%
Cc1cc(C(F)(F)F)c2c(N)c(C(=O)Nc3cccnc3)sc2n1 — inhibition (NT5E; enzyme activity, inhibitor; 10 µM): 0%
CC(=O)Oc1cccc(C(=O)NCc2cc(O)c(O)c(Br)c2)c1C — inhibition (rep papain-like protease; enzyme activity, inhibitor, FRET; 10 µM): 105%
Cc1cc(NS(=O)(=O)c2ccc(N=NN(O)c3ccccc3)cc2)no1 — inhibition (AMY2; enzyme activity, inhibitor; 20 µg/mL): 15.8%
O=C1C[C@@H](c2ccccc2)Oc2cc(O)cc(O)c21 — inhibition (AMY2; enzyme activity, inhibitor; 50 µM, 30 min): 24.4%
NC/C(=C\F)COc1cccc(Cn2c(=S)[nH]c(=O)c3[nH]cnc32)c1 — inhibition (Myeloperoxidase (MPO, Homo sapiens, UniProt P05164); enzyme activity, inhibitor, fluorescence; 4.1 nM): 28%
O=c1c2cc(O)c(O)cc2oc2cc(O)c([C@@H]3O[C@H](CO)[C@@H](O)[C@H](O)[C@H]3O)c(O)c12 — inhibition (CDK7 with cyclin H; enzyme activity, inhibitor, ADP detection; 10 µM): 40.5%
COc1cc(CNC(=O)c2sc3nc(C)cc(C)c3c2N)cc(OC)c1OC — inhibition (NT5E; enzyme activity, inhibitor; 10 µM): -23%
Cc1cc([C@@H](C)Nc2ccccc2C(=O)O)c2nc(N3CCC(F)(F)CC3)c(C#N)c(=O)n2c1 — remaining binding (MAPK9 (Homo sapiens, UniProt P45984); binding, competition with immobilised ligand; 1 µM): 96%
Cc1cc(O)c(-c2ccc([C@@H](C)CN(C)C)cc2)c2c1[nH]c(=O)c1sccc12 — inhibition (CAMK2D (Homo sapiens, UniProt Q13557); cell-free assay, inhibitor; 0.1 µM): 1.19%
CC(=NNC(=S)Nc1ccccc1)c1ccc(Nc2nnc(-c3ccc(Cl)cc3)c3ccccc23)cc1 — viability (HepG2; cell growth or viability, MTT; 5 µM, 24 h): 4.93%
Cc1cccc(N(O)N=Nc2ccc(S(=O)(=O)Nc3cc(C)on3)cc2)c1 — inhibition (AMY2; enzyme activity, inhibitor; 240 µg/mL): 57.9%
CCN1/C(=C/C(C)=O)Sc2ccc(F)cc21 — inhibition (Oxytocin receptor (OXTR, Homo sapiens, UniProt P30559); ligand displacement, radioligand; 10 µM): 3.45%

Repeated from above:
COc1ccc(NC(=O)CSc2nc(-c3ccccc3)cc(C)c2C#N)cc1 — inhibition (NT5E; enzyme activity, inhibitor, HPLC; 10 µM): 79%
Cc1noc(C)c1Cn1cc(N2C(=O)CN(Cc3cccc(O)c3)C2=O)cn1 — concentration (male Sprague-Dawley rat, plasma; oral, 100 mg/kg, 30 min): 68.1 ng/mL
CN(O)N=Nc1ccc(S(=O)(=O)Nc2nccs2)cc1 — inhibition (AMY2; enzyme activity, inhibitor; 20 µg/mL): 15.8%
CCOC(=O)[C@@]12C[C@@H]1[C@@H](n1cnc3c(Nc4ccccc4)nc(I)nc31)[C@H](O)[C@@H]2O — inhibition (SLC6A2 (Homo sapiens, UniProt P23975); ligand displacement, radioligand; 10 µM): 23%
CCCCn1cnc2ccc(-c3ccc(NC(C)=O)nc3)cc2c1=O — inhibition (PIP4K2C; binding; 0.5 µM): 85.8%
O=C(Nc1ccc(F)c(Cl)c1)c1ccc2c(c1)C(=O)NC2=O — inhibition (MAOB (Homo sapiens, UniProt P27338); enzyme activity, inhibitor; 1 µM): 96.2%
